{"data": "Results of several laboratories", "note": "Parts stem from different laboratories: compare values within a part only. Substitutions count along the parent as printed."}
{"data": "Sample 1", "target": "RNA binding protein fox-1 homolog 2, RRM domain, GST-SBP tag (RBFOX2, Homo sapiens, UniProt O43251-10, residues 100-194)", "method": "RNA Bind-n-Seq", "molecule type": "RNA", "matrix": "in vitro", "concentration": "365 nM", "setting": "natural RNA segment, single round, ends assumed", "baseline": "no-protein control", "reading": "higher = stronger binding", "Residues (chain)": "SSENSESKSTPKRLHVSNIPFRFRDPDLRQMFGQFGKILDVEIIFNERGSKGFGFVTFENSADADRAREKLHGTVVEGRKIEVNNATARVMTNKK"}
{"Oligonucleotide": "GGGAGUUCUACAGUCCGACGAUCUUGCUUGAGAGGGUUUCUUUUACUUCAAAAUCUUUCUUCAGGGAGCAAGACAUGAACUGACUAAUUGGUAUCCACUACUUGUACAGCUUACAUAAAUGAGUUGAUGAUAUUGGAAUUCUCGGGUGCCAA", "RBNS enrichment (R)": 0.354}
{"Oligonucleotide": "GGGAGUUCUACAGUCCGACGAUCCACAAUGAAAAGUUUAUUUUAAACAUUGUUUAAUUAAAAUACCAUACAGUUCUCUUUUAAACAUCAAACCAUAAAAAGUGUAUUUUGUAAUUUUACUCUGACCUGCCGCAUGGAAUUCUCGGGUGCCAA", "RBNS enrichment (R)": 1.12}
{"Oligonucleotide": "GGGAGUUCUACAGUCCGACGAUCACUGUGAAGUGUUGAGGACAGUGUUGAUGCCUAACUAGUUUUCUUAGAUGGAAACAGAGACAUUGAGCCCUCUCUCUUGAUCGUAAACCACUCCAGAACGGCCACGGGUUUGGAAUUCUCGGGUGCCAA", "RBNS enrichment (R)": 0.221}
{"Oligonucleotide": "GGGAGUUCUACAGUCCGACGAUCACAGGAUGCUGCCUUGCCUGGUUUUGUUCUGAGCUGGUGAAUCCUUUGCUCUUUCAGCUAUUCUAGAGUGGCCUGUGAGCAAAUGAACUUCUCUCUCUCUCUCUCUCUCUUGGAAUUCUCGGGUGCCAA", "RBNS enrichment (R)": 0.923}
{"Oligonucleotide": "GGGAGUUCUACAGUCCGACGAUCGAAACCUUACCCGAGAGGAGUUUCCUAUCUCUGGAUGGCAGUUGAUUCACUGUAAGUGUUCUGUGGCCUAACUAGUGAGAGAUGCUUCAAAUAAACUAAGUUUUUAUGAGUGGAAUUCUCGGGUGCCAA", "RBNS enrichment (R)": 0.398}
{"Oligonucleotide": "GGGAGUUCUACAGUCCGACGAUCUGUACUUGACGGCUGGCCUCCAGGGUCUCUCUUGCUUUGUACUGGUUCCCCUCUUUACCUUCACCAUUCGCUGCUUCUGCCAAGUCUGUGAAGCCGUCCUUUGUAGGAUGUGGAAUUCUCGGGUGCCAA", "RBNS enrichment (R)": 0.717}
{"Oligonucleotide": "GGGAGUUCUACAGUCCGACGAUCAUUAACAUGCUUCUUUUAUUCUUCAAAGCAAUUCUUUACAACCUGACCAUGUAAAAGAUCUGUUACCCCUAGAGUGUUGAGCCUGCUGAUUUCAUUUAGGACAAAUGUGCUGGAAUUCUCGGGUGCCAA", "RBNS enrichment (R)": 0.42}
{"Oligonucleotide": "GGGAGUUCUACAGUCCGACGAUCUCCCUCUGGCGGUGGGGGAGGGGCGGAGUUGUGUGUAAUUUAAGACAAUUUAAGGUCUUUUCUAAACACGAUAGUUAUAAAUGUCCUUUUUAGAUCUUCUGGGGUAUGCAUGGAAUUCUCGGGUGCCAA", "RBNS enrichment (R)": 4.83}
{"Oligonucleotide": "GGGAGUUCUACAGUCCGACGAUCCCAGCCUCUCCACCAGCCCCUCCAGUCAACCCUCAUCGCCGUGCCCCCCCAGAGCUAGAGAGAUGGGGCCCCUGCGUGGCCCGAGGGGCAGAGCUGGGCGUCACUUCGCAUGGAAUUCUCGGGUGCCAA", "RBNS enrichment (R)": 0.786}
{"Oligonucleotide": "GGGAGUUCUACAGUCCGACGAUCUCCGCCGCCUUCCACGCUAGGAUGUAAGAGGUCGCCUCCUAUUGUACAUUUGGGGAAAGCCUUGGGUGUAAAUCAGUGUAAACUUGGAGGAGAGAUUUUUCUAUCAUGUAUGGAAUUCUCGGGUGCCAA", "RBNS enrichment (R)": 0.279}
{"Oligonucleotide": "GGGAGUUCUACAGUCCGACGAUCCCAUGGGCUGGCAUGGGGCUCCCACAGGAUCAGAGGCUGGGGCCAACUGGAACCAUUGGCAGCUGCACGCUCAUUACUACCCUCCGCUCCUGCGCUCUGCCACUGUCCGGUGGAAUUCUCGGGUGCCAA", "RBNS enrichment (R)": 5.91}
{"Oligonucleotide": "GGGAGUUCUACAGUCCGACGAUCCCCAUAGGCUAAUACCCCUGGCACUGAUGGGCCCUGGGAAAUGUACAGUAGACCAGUUGCUCUUUGCUUCAGGUCCCUUUGAUGGAGUCUGUCAUCAGCCAGUGCUAACAUGGAAUUCUCGGGUGCCAA", "RBNS enrichment (R)": 0.267}
{"data": "Sample 2", "target": "Sal-like protein 4, full length isoform B (SALL4, Homo sapiens, UniProt Q9UJQ4-2, residues 1-616)", "method": "universal PBM", "molecule type": "double-stranded DNA, one strand shown", "matrix": "in vitro", "concentration": "not given", "setting": "8-mer, flanks averaged, mean of replicates", "reading": "higher = stronger binding", "Residues (chain)": "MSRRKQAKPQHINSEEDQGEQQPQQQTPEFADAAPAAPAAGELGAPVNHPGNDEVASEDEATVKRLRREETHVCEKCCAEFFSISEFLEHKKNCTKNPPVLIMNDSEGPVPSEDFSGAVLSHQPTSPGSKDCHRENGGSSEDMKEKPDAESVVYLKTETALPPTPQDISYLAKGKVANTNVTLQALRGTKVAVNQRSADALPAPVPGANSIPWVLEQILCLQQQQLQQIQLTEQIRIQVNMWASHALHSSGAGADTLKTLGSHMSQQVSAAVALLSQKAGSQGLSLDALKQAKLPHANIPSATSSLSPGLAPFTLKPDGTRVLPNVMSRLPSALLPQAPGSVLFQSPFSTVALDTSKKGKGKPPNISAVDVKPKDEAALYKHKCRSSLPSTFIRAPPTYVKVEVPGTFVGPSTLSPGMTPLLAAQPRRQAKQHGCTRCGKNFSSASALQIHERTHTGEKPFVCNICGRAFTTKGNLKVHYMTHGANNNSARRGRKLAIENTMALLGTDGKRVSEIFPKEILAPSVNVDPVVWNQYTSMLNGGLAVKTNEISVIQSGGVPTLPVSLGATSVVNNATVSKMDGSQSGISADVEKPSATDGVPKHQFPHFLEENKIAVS"}
{"Oligonucleotide": "AGTGCTCA", "E-score": -0.106}
{"Oligonucleotide": "CTTGAAGA", "E-score": 0.0207}
{"Oligonucleotide": "AATCGATT", "E-score": 0.149}
{"Oligonucleotide": "GATAGGGC", "E-score": -0.136}
{"Oligonucleotide": "GATAATTA", "E-score": 0.406}
{"Oligonucleotide": "ATTGCTTA", "E-score": 0.266}
{"Oligonucleotide": "GATCTTCC", "E-score": -0.217}
{"Oligonucleotide": "GCTGAACC", "E-score": -0.25}
{"Oligonucleotide": "GCTGCTAA", "E-score": -0.222}
{"Oligonucleotide": "AGATAGCT", "E-score": -0.0934}
{"Oligonucleotide": "AAACGTAC", "E-score": 0.137}
{"Oligonucleotide": "ATCTGTTA", "E-score": 0.26}
{"Oligonucleotide": "CTCGGCAC", "E-score": -0.35}
{"Oligonucleotide": "GGCGACAC", "E-score": -0.252}
{"Oligonucleotide": "CGACCATA", "E-score": 0.142}
{"Oligonucleotide": "CGCAGGCC", "E-score": -0.332}
{"Oligonucleotide": "GTGTACAA", "E-score": 0.191}
{"Oligonucleotide": "GTAAGACA", "E-score": 0.0628}
{"data": "Sample 3", "target": "CEBPA, bZIP domain (human)", "method": "DHFR protein complementation", "matrix": "yeast", "setting": "single substitutions, most at no-binding floor", "baseline": "wild-type JUN-FOS pair", "reading": "higher = stronger binding", "starting sequence": "JUN, bZIP domain (human); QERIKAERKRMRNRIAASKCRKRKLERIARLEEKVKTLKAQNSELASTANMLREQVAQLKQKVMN; partner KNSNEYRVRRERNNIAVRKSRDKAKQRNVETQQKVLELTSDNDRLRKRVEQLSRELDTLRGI"}
{"Variant": "T37A", "binding fitness": "-1.34 natural log"}
{"Variant": "T37H", "binding fitness": "-1.16 natural log"}
{"Variant": "A40C", "binding fitness": "-1.48 natural log"}
{"Variant": "V35F", "binding fitness": "-1.54 natural log"}
{"Variant": "V35Y", "binding fitness": "-1.45 natural log"}
{"Variant": "E32K", "binding fitness": "-1.39 natural log"}
{"Variant": "S47H", "binding fitness": "-1.46 natural log"}
{"Variant": "E33P", "binding fitness": "-1.51 natural log"}
{"Variant": "E32M", "binding fitness": "-1.5 natural log"}
{"Variant": "S47M", "binding fitness": "-1.32 natural log"}
{"Variant": "L45D", "binding fitness": "-1.5 natural log"}
{"Variant": "V35W", "binding fitness": "-1.57 natural log"}
{"Variant": "S43R", "binding fitness": "-1.38 natural log"}
{"Variant": "T37C", "binding fitness": "-1.38 natural log"}
{"Variant": "K36F", "binding fitness": "-1.48 natural log"}
{"Variant": "A57K", "binding fitness": "-1.48 natural log"}
{"Variant": "S47G", "binding fitness": "-1.45 natural log"}
{"Variant": "A57R", "binding fitness": "-1.27 natural log"}
{"Variant": "K39N", "binding fitness": "-1.46 natural log"}
{"Variant": "T48L", "binding fitness": "-1.33 natural log"}
{"Variant": "V56F", "binding fitness": "-1.54 natural log"}
{"Variant": "L38W", "binding fitness": "-1.49 natural log"}
{"Variant": "E32S", "binding fitness": "-1.45 natural log"}
{"Variant": "K36I", "binding fitness": "-1.48 natural log"}
{"Variant": "Q55S", "binding fitness": "-1.43 natural log"}
{"data": "Sample 4", "target": "Interferon regulatory factor 3, full length, phosphomimetic (IRF3, Homo sapiens, UniProt Q14653, residues 1-427, S386D/S396D/S398D/S402D/T404D/S405D)", "method": "protein-binding microarray", "molecule type": "double-stranded DNA, one strand shown", "matrix": "in vitro", "concentration": "2540 nM top", "setting": "60-bp whole probe", "added": "salmon DNA 0.4 mg/ml", "baseline": "random background probes", "reading": "higher = stronger binding", "constant ends, left off below": "GCCTAGCAC … GTCTTGATTCGCTTGACGCTGCTG", "Target sequence (chain)": "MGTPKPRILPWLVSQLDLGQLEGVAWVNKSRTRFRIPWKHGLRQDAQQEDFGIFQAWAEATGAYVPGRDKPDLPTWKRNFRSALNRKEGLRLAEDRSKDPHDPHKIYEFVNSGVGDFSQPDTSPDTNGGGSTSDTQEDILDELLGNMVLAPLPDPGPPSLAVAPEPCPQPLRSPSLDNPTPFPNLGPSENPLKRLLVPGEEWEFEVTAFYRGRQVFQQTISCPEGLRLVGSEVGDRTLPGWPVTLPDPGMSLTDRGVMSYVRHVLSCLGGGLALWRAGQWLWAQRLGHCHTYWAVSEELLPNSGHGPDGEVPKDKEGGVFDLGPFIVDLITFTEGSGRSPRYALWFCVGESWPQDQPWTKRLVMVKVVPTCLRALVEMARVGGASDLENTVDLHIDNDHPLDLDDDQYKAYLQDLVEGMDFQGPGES"}
{"Oligonucleotide": "TTAGGTATCGGGTTTTGGTTAGTGCTA", "fitted relative affinity [z-score]": 1.75}
{"Oligonucleotide": "GACGGTTTCGAATTTCGGGACGTGCTA", "fitted relative affinity [z-score]": 5.37}
{"Oligonucleotide": "GACGGCCTGGGACTGGGGACGTGCTAG", "fitted relative affinity [z-score]": -1.24}
{"Oligonucleotide": "TCAGGTATAGCACTAAGACTGTGCTAG", "fitted relative affinity [z-score]": -0.531}
{"Oligonucleotide": "GAGTTCCTCTCTAGGCACTGGTGCTAG", "fitted relative affinity [z-score]": 0.778}
{"Oligonucleotide": "GAATGTCTTCCCCTCTCATTGTGCTAG", "fitted relative affinity [z-score]": 0.556}
{"Oligonucleotide": "GACGATTTAGGGTATCGAGACGTGCTA", "fitted relative affinity [z-score]": 0.461}
{"Oligonucleotide": "ATAGGTCTCGGTATCGGTTAGTGCTAG", "fitted relative affinity [z-score]": 2.53}
{"Oligonucleotide": "GACGGTATCCTTGTCCTGACGTGCTAG", "fitted relative affinity [z-score]": 2.97}
{"Oligonucleotide": "TCAGGTTTACCAGATCATCTGGTGCTA", "fitted relative affinity [z-score]": 0.623}
{"Oligonucleotide": "GACGATTTCGGTATCGAGACGTGCTAG", "fitted relative affinity [z-score]": 4.53}
{"Oligonucleotide": "TTAGGTTTCGACACTGAGTTAGTGCTA", "fitted relative affinity [z-score]": 2.55}
{"Oligonucleotide": "TTAGGTATCGACACAGGGTTAGTGCTA", "fitted relative affinity [z-score]": 0.0802}
{"Oligonucleotide": "GACGGACTGCTTATCCTTACGTGCTAG", "fitted relative affinity [z-score]": -0.0278}
{"Oligonucleotide": "TTAGGTCTTCTACTGCTTTAGTGCTAG", "fitted relative affinity [z-score]": -0.445}
{"Oligonucleotide": "TCATTTATGCACTCTTTAACTGTGCTA", "fitted relative affinity [z-score]": 1.35}
{"Oligonucleotide": "GACGGTATCCGGTTTCGGGACGTGCTA", "fitted relative affinity [z-score]": 3.99}
